Published values pooled from the literature.
Each line is one published result; not all experiments were run side by side. Numbers after ± are the reported error.
Oprk1: Kappa-type opioid receptor (Oprk1, Rattus norvegicus, UniProt P34975)
ALB: Albumin (ALB, Homo sapiens, UniProt P02768)
BACE1: Beta-secretase 1 (BACE1, Homo sapiens, UniProt P56817)
ampC: Beta-lactamase (ampC, Escherichia coli K-12, UniProt P00811)

SMILES | target | assay | system | conditions | how to read | measurement | value
CS(C)(=O)=Nc1ccc(-c2ccc(-c3nc4cc(O[C@@H]5CO[C@H]6[C@@H]5OC[C@H]6O)[nH]c4cc3F)cc2)cc1 | PRKAB2/PRKAA2 (Homo sapiens, UniProt O43741+P54646) | enzyme activity, activator | – | 60 min, 50% above basal activity, added: ATP 50 µM | – | EC150 | 0.221 nM
Cc1sc2c(c1C)C(c1ccc(Cl)cc1)=N[C@@H](CC(=O)NCCCNC(=O)c1ccc(F)c([N+](=O)[O-])c1)c1nnc(C)n1-2 | BRD4 (Homo sapiens, UniProt O60885) | degrader | Jurkat | – | – | Dmax | 87%
COC(=O)N(C)[C@@H](Cc1ccccc1)C(=O)N[C@@H](Cc1ccccc1)C(=O)N[C@@H](Cc1ccccc1)C(=O)N[C@@H](CCCNC(=N)N)C(=O)N[C@@H](CC(C)C)C(=O)N[C@@H](CCCNC(=N)N)C(=O)N[C@@H](CCCNC(=N)N)C(=O)N[C@H](C)C(=O)N[C@@H](CCCNC(=N)N)C(=O)N1CCC[C@H]1C(=O)N[C@@H](CCCCN)C(N)=O | Oprk1 | agonist | CHO cells | 10 µM | relative to: dynorphin A(1-13) amide | adenylyl cyclase activity | 74 ± 13%
CCN(Cc1ccccc1)C(=O)CCc1nc(CN2CCN(C(=O)Cc3ccc(OC)c(OC)c3)CC2)no1 | Scn10a (Rattus norvegicus, UniProt Q62968) | whole-cell patch clamp | rat DRG neurons | 3 µM | – | V1/2 of activation | -20.2 ± 1.32 mV
C/C(=N\OCCCN1CCCCC1)c1ccc(C(F)(F)F)cc1 | rat sigma-1 receptor | binding | – | added: phenytoin 250 µM | relative to: without over with phenytoin | Ki ratio | 2.05
O=C(N=P12CN3CN(CN(C3)C1)C2)c1ccccn1.[Cl][Pt][Cl] | ALB | binding, circular dichroism | – | 20 h, pH 7.39, 37 °C | – | saturating equivalents | 6 equivalents
CC(C)C[C@H](NC(=O)[C@H](CCCNC(=N)N)NC(=O)[C@H](Cc1ccccc1)NC(=O)[C@H](Cc1ccccc1)NC(=O)[C@H](Cc1ccccc1)N(C)C(=O)CN)C(=O)N[C@@H](CCCNC(=N)N)C(=O)N[C@@H](CCCNC(=N)N)C(=O)N[C@H](C)C(=O)N[C@@H](CCCNC(=N)N)C(=O)N1CCC[C@H]1C(=O)N[C@@H](CCCCN)C(N)=O | Oprk1 | agonist | CHO cells | 10 µM | relative to: dynorphin A(1-13) amide | adenylyl cyclase activity | 75 ± 8%
O=C(NCCN1CCC2(CC1)C(=O)NCN2Cc1cccnc1)c1cc2cc(F)ccc2[nH]1 | Phospholipase D2 (Homo sapiens, UniProt O14939) | – | – | – | relative to: PLD1 IC50 over Phospholipase D2 IC50 | selectivity ratio | 26 fold
Cn1cc(C(=O)Nc2ccccn2)c2ccccc21 | Genome polyprotein, 3C protease (rhinovirus B14, UniProt P03303) | protease activity, SAMDI-MS | – | – | – | Hill slope | 1.44
O=C(/C=C/c1ccccc1)c1cc2ccccc2oc1=O | BACE1 | enzyme activity, inhibitor, fluorescence | – | 10 µM | – | remaining activity | 74.6%
[N-]=[N+]=N[C@H]1[C@@H](O)[C@H](COP(=O)(O)O)O[C@@H]1n1ccc(N)nc1=O | UMP-CMP kinase (Homo sapiens, UniProt P30085) | enzyme activity, substrate, coupled spectrophotometric | – | – | relative to: D-CMP | relative Vmax | 0.36 ± 0.02%
FC(F)(F)c1ccc(Nc2c3c(nc4ccccc24)CCCC3)cc1 | ache (Electrophorus electricus, UniProt O42275) | – | – | 100 µM | – | inhibition | 94.5 ± 1.71%
CN(C)CCCN1c2ccccc2Sc2ccc(C(F)(F)F)cc21 | srtA (Staphylococcus aureus, UniProt Q2FV99) | binding, fluorescence quenching | – | – | – | Stern-Volmer constant | 5400 L/mol
CCN(CC)CCOc1ccc(-c2nnn(Cc3ccc(OC)cc3)c2N)cc1 | TGF-beta receptor type-1, with Smad3 (TGFBR1, Homo sapiens, UniProt P36897) | TGFBR1-SMAD3 interaction, pull-down | – | 10 µM | – | binding | no effect
CC(=O)N[C@H]1[C@@H](OC[C@H](NC(=O)CNC(=O)[C@@H]2CCCN2C(=O)[C@H](C)NC(=O)[C@@H]2CCCN2C(=O)[C@@H](N)CCCNC(=N)N)C(=O)N[C@H](C(=O)N[C@@H](C)C(=O)N2CCC[C@H]2C(=O)N2CCC[C@H]2C(=O)N[C@@H](C)C(=O)N[C@@H](Cc2c[nH]cn2)C(=O)NCC(=O)O)[C@@H](C)O[C@H]2O[C@H](CO)[C@H](O)[C@H](O)[C@H]2NC(C)=O)O[C@H](CO)[C@H](O)[C@@H]1O | anti-MUC1 Fab 14 A wild type, murine | SPR | – | – | relative to: Glyco-S | ka increase | 1.4 fold
CN1CCN(C(=O)N[C@@H](Cc2ccccc2)C(=O)N[C@H](/C=C/S(=O)(=O)c2ccccc2)CCc2ccccc2)CC1 | Cathepsin B (CTSB, Homo sapiens, UniProt P07858) | inactivator | – | pH 5.5, 25 °C, added: Z-FR-AMC | – | kinact | 0.026 ± 0.007 s⁻¹

SMILES | target | assay | system | conditions | how to read | measurement | value
NC(CNC(CNC(CC(=O)O)C(=O)O)C(=O)O)C(=O)O (centres unmarked) | VIM-2 (Escherichia coli, UniProt Q5U7L7) | enzyme activity, inactivator | – | 37 °C, enzyme 10 nM, added: nitrocefin 20 µM | – | inactivation rate constant | 0.0065 s⁻¹
CNC(=O)c1cc(C(=O)NC)cc(-c2ccc(O[C@H]3O[C@H](CO)[C@@H](O)[C@H](O)[C@@H]3O)c(C)c2)c1 | Type 1 fimbrin D-mannose specific adhesin, lectin domain (fimH, Escherichia coli K-12, UniProt P08191) | binding, differential scanning fluorimetry | – | – | higher = stronger binding | melting temperature | 75.8 °C
C[C@]1(COC(=O)c2ccc(O)c(O)c2)[C@H](C(=O)O)N2C(=O)/C(=C/c3ccccn3)[C@H]2S1(=O)=O | OXA-23 (Acinetobacter baumannii, UniProt Q9L4P2) | enzyme activity, inhibitor, absorbance | – | – | – | kinact | 0.04 s⁻¹
COc1ccc2cc1Oc1ccc(cc1)C[C@H]1c3cc(c(OC)cc3CC[N+]1(C)Cc1ccc3ccccc3c1)Oc1c(OC)c(OC)cc3c1[C@H](C2)[N+](C)(Cc1ccc2ccccc2c1)CC3 (mixture of isomers) | poly(dA)·poly(dT) 18-bp dsDNA | DNA binding, ethidium bromide displacement | phosphate buffer, 10% DMSO | pH 7.2, 25 °C, dsDNA 10 µM, 10 mM NaCl, added: ethidium bromide 5 µM | – | Stern-Volmer constant | 14500 L/mol
CC(C)[C@@H]1NC(=O)[C@H](CCC(N)=O)NC(=O)[C@@H](Cc2ccc(O)cc2)NC(=O)CSC[C@@H](C(N)=O)NC(=O)[C@H](CC(=O)O)NC(=O)[C@H](CCC(=O)O)NC(=O)[C@H](Cc2c[nH]c3ccccc23)NC(=O)[C@@H]2CCCN2C(=O)[C@H](CO)N(C)C(=O)[C@H](C)NC(=O)[C@H](Cc2c[nH]c3ccccc23)NC(=O)[C@H](Cc2c[nH]c3ccccc23)NC(=O)[C@H](C(C)C)NC(=O)[C@H]([C@@H](C)O)NC1=O | 2,3-bisphosphoglycerate-independent phosphoglycerate mutase (gpmI, Staphylococcus aureus, UniProt Q6GIL5) | thermal stability, thermal shift | – | – | – | ΔTm | 17 °C
CCCS(=O)(=O)Nc1ccccc1C(=O)O | ampC | – | – | – | – | ligand efficiency | 0.35
CC[C@H](C)[C@H](NC(=O)[C@H](CCC(N)=O)NC(=O)[C@H](CC(C)C)NC(=O)[C@@H](NC(=O)CNC(=O)[C@H](Cc1ccc(O)cc1)NC(=O)[C@H](CC(=O)O)NC(=O)[C@@H](NC(=O)[C@H](CO)NC(=O)CNC(=O)[C@H](CC(=O)O)NC(=O)[C@@H](NC(=O)[C@H](CC(N)=O)NC(=O)[C@H](CCCNC(=N)N)NC(=O)[C@H](CC(N)=O)NC(=O)[C@@H](NC(=O)[C@H](C)NC(=O)[C@H](CCC(N)=O)NC(=O)[C@@H](NC(=O)[C@H](CC(N)=O)NC(=O)[C@H](Cc1ccccc1)NC(=O)[C@H](CC(N)=O)NC(=O)[C@H](CO)NC(=O)[C@H](CCC(=O)O)NC(=O)[C@H](Cc1ccccc1)NC(=O)[C@H](CCCCN)NC(=O)[C@H](C)NC(=O)[C@H](C)NC(=O)[C@H](CO)NC(=O)[C@@H](NC(=O)[C@H](Cc1c[nH]c2ccccc12)NC(=O)[C@H](CC(N)=O)NC(=O)CNC(=O)[C@H](CC(C)C)NC(=O)[C@H](CO)NC(=O)[C@H](Cc1ccc(O)cc1)NC(=O)CNC(=O)[C@H](CCCNC(=N)N)NC(=O)[C@H](Cc1ccc(O)cc1)NC(=O)[C@H](CC(N)=O)NC(=O)[C@@H](N)CC(=O)O)C(C)C)[C@@H](C)O)[C@@H](C)O)[C@@H](C)O)[C@@H](C)O)[C@@H](C)CC)C(=O)O | Periplasmic serine endoprotease DegP (degP, Escherichia coli, UniProt P0C0V0, C83S/C95S/N322C/S236A) | cage assembly, FRET | – | added: DegP S210A 50 nM | – | Hill coefficient | 1.9
Nc1ncnc2c1ccn2[C@@H]1O[C@@H]2COP(=O)(O)O[C@H]3[C@@H](O)[C@H](n4ccc5c(N)ncnc54)O[C@@H]3COP(=O)(O)O[C@H]2[C@H]1O | ydaO riboswitch wild type (Bacillus subtilis) | competition gel-shift | – | concentration not given | relative to: c-di-AMP, higher = weaker binding | binding affinity fold loss | 12
OB(O)c1cc2ccc(OCc3ccccc3)cc2[nH]1 | ampC | – | – | – | – | ligand efficiency | 0.38
CC(C)[C@H]1CC[C@@H](N2CC[C@@](C)(c3cccc(O)c3)[C@@H](C)C2)CC1 | OPRM1 (Homo sapiens, UniProt P35372) | agonist | – | – | – | efficacy | 0%
CC(=O)NC(Cc1ccc(Br)c(Cl)c1)C(=O)N[C@@H](C)C(=O)N1CCC[C@H]1C(=O)N1CCC[C@H]1C(=O)N[C@@H](CCC(=O)O)C(=O)N[C@@H](Cc1c[nH]cn1)C(=O)N[C@@H](CO)C(=O)N[C@H](C(=O)N[C@@H](C)C(N)=O)[C@@H](C)OP(=O)(O)O (some centres unmarked) | BRAF (Homo sapiens, UniProt P15056) | enzyme activity, inhibitor | – | 10 µM | – | inhibition | 0.16%
Cc1ccc(Oc2nc3cc(-c4ccc5c(ccn5C)c4)c(Cl)cc3[nH]2)cc1C(=O)O | PRKAA1/PRKAB1, phosphorylated; with gamma1 (Homo sapiens, UniProt Q13131+Q9Y478) | binding, biolayer interferometry | – | α1β1γ1 complex | – | kon | 103000 ± 8000 M⁻¹ s⁻¹
COC(=O)C1C(OC(c2ccc(Cl)cc2)c2ccc(Cl)cc2)CC2CCC1N2C (single isomer, unassigned) | rat central benzodiazepine site | binding, radioligand displacement | – | inactive if below 75% at 10000 nM, added: [3H]flunitrazepam | – | Ki | inactive
C[C@H](NC(=O)CNC(=O)CNC(=O)[C@H](Cc1ccc(O)cc1)NCc1ccccc1)C(=O)N[C@@H]1CC(=O)NC[C@@H](C(=O)N[C@@H](CCCNC(=N)N)C(=O)N2CCC[C@H]2C(=O)N[C@@H](CCCCN)C(N)=O)NC(=O)[C@H](CCCNC(=N)N)NC(=O)[C@H](CCCNC(=N)N)NC1=O | Oprk1 | binding | – | – | relative to: zyklophin | affinity fold decrease | 42 fold
O=C(/C=C/c1ccc([N+](=O)[O-])cc1)c1ccc(N2CCNCC2)cc1 | BACE1 | enzyme activity, inhibitor, fluorescence | – | 10 µM | – | remaining activity | 90%
N#CC1(c2ccc3c(N)ncnn23)OC(COP(=O)(O)OP(=O)(O)OP(=O)(O)O)C(O)C1O (centres unmarked) | ALB | binding, native ESI-FT-ICR MS | – | 3 µM, saturation curve | – | bound fraction | 0.9227 ± 0.0067

Some of these lines once more:
SMILES | target | assay | system | conditions | how to read | measurement | value
Cn1cc(C(=O)Nc2ccccn2)c2ccccc21 | Genome polyprotein, 3C protease (rhinovirus B14, UniProt P03303) | protease activity, SAMDI-MS | – | – | – | Hill slope | 1.44
O=C(/C=C/c1ccccc1)c1cc2ccccc2oc1=O | BACE1 | enzyme activity, inhibitor, fluorescence | – | 10 µM | – | remaining activity | 74.6%
[N-]=[N+]=N[C@H]1[C@@H](O)[C@H](COP(=O)(O)O)O[C@@H]1n1ccc(N)nc1=O | UMP-CMP kinase (Homo sapiens, UniProt P30085) | enzyme activity, substrate, coupled spectrophotometric | – | – | relative to: D-CMP | relative Vmax | 0.36 ± 0.02%
FC(F)(F)c1ccc(Nc2c3c(nc4ccccc24)CCCC3)cc1 | ache (Electrophorus electricus, UniProt O42275) | – | – | 100 µM | – | inhibition | 94.5 ± 1.71%
CN(C)CCCN1c2ccccc2Sc2ccc(C(F)(F)F)cc21 | srtA (Staphylococcus aureus, UniProt Q2FV99) | binding, fluorescence quenching | – | – | – | Stern-Volmer constant | 5400 L/mol
